Measured values from different studies.
Numbered parts are unrelated; each lists some results of a single study. Changes are numbered by the printed parent chain.

Study 1
Target: Interferon regulatory factor 5, full length, phosphomimetic (IRF5, Homo sapiens, UniProt Q13568-2, residues 1-514, K96S/S451D/S453D/S456D/S462D)
Technique: protein-binding microarray
Molecule type: double-stranded DNA, one strand shown
Sample: in vitro
Tested at: 250 nM
Setting: 60-bp whole probe
Added: salmon DNA 0.4 mg/ml
Relative to: random background probes
Direction: higher = stronger binding
Endpoint: log fluorescence
All sequences stand within: GCCTAGCAC … GTCTTGATTCGCTTGACGCTGCTG
Strand = CACGATCTCAGTATCGAGACGTGCTAG; value = 1.53 z-score
Strand = GACGGTCTCCTTTTCCTGTCGTGCTAG; value = 0.561 z-score
Strand = TCACATCTTGTTCCCAGACTGTGCTAG; value = 0.285 z-score
Strand = TTAGGTTTCTGTCTCGGTTAGTGCTAG; value = 5.26 z-score
Strand = CAATATTAGAGTCTCAACCCGTGCTAG; value = -0.0779 z-score
Strand = TCAGCTCTTTCGTTACTTACTGTGCTA; value = 5.44 z-score
Strand = GCTTTCCCCTTGGACTCTTTGTGCTAG; value = 1.22 z-score
Strand = AACAGAGGAATGGATACAGAGTGCTAG; value = 0.163 z-score
Strand = GACGGACTGGGTCTCGGGAGGTGCTAG; value = -0.711 z-score
Strand = TTAGGTATCGGATTCGGTTAGTGCTAG; value = 3.01 z-score
Strand = TCATATATGTGTATATAACTGTGCTAG; value = 0.613 z-score
Strand = GACAGTATCGACACTGGGGACGTGCTA; value = 2.89 z-score
Strand = GACGATTTCAGGCTGGAGACGTGCTAG; value = 0.354 z-score
Strand = GACGGTCTCGGGTTCGGGACGTGCTAG; value = -0.235 z-score
Strand = TATTGTGCAATTAGAGCCCTGTGCTAG; value = 0.104 z-score
Strand = TTCGGTCTCGGTCTCGGTTAGTGCTAG; value = 2.06 z-score
Strand = TTAGATTTCAGACTGGATAAGTGCTAG; value = 0.456 z-score

Study 2
Target: Fragile X messenger ribonucleoprotein 1, C-terminal low-complexity region (Fmr1, Mus musculus, UniProt P35922)
Technique: RNA Bind-n-Seq
Molecule type: RNA
Sample: in vitro
Tested at: 200 nM
Setting: whole 134-nt RNA, ends assumed
Added: 150 mM KCl
Relative to: input library
Direction: higher = stronger binding
Endpoint: log2 enrichment
All sequences stand within: GGGAGUUCUACAGUCCGACGAUC … UGGAAUUCUCGGGUGUCAAGG
Strand = GUCCUGUGCUACACAUCGUAUGUACCGAAUCGGGGAGGGGUUUGGGGAAAAAAAGGGGAAAGUAUUAUGUUACGCCGUUCGGAUCUGCAC; value = 0.353
Strand = UAACUUUAGAGGAUGAUCUGAUGGAUAUGGCAGUGGACGUGGAUUUGGGGAUGGCUAUAAUGGGUAUGGAGGAGGACCUGGAGGUGGCAA; value = 0.261
Strand = UGGCCAUGGUGGCAUGCGGGGAGGAAGAGGUGGCCUCAUGGAUCGUGGUGGUCCCGGUGGAAUGUUCAGAGGUGGCCGUGGUGGAGACAG; value = 0.178
Strand = UUCAUUCUUACUUUGAAUCUAGGAUUUUAUGGAAGACCUUGGGUUAUGGAACAGAGAAAAGAACUCUUUAGAAGGUAAAUCUUCAUUAUA; value = -2.09
Strand = AAAGGAAGUAAAAACAAAUGGAAAUGCUUCGGAUAGUGGCAGGGGUGGGGGUUGCUAAGGAAAGGGUGGGAUGGGAGUGGGUAAAGAGUU; value = 0.146
Strand = CUCAAGUCCUGUGCUACACAUCGUAUGUACCGAAUCGGAAAAAGGUGGUUUGGAAAGUAUUAUGUUACGCCGUUCGGAUCUGCACUUCCA; value = -0.454
Strand = UGGGAGGUGGAUUUUGUUUAUUUUUUUAGCUCAUUUCCAGGGGUGGGAAUUUUUUUUUAAUAUGUGUCAUGAUUAAAGUUGUUUUUGAAA; value = 0.348
Strand = CACAGACAAUACGCACCCACACAGACACAGAGGGAAGGGGUUGGGAUGGGGACAGGGUGCACAGCAGGGCGGGGUAGGACCCCAGCCCCU; value = 1.29
Strand = CUCAAGUCCUGUGCUACACAUCGUAUGUACCGAAUCGGUGGUUUUUGGAAAGGAAAGUAUUAUGUUACGCCGUUCGGAUCUGCACUUCCA; value = -0.0843
Strand = CAAGUCCUGUGCUACACAUCGUAUGUACCGAAUCGGGCCCCGGCCCCGGCCCCGGAAAGUAUUAUGUUACGCCGUUCGGAUCUGCACUUC; value = -0.583
Strand = AGUCCUGUGCUACACAUCGUAUGUACCGAAUCGGGGAGGGGUGGGGAAAAAAAGGGGAAAGUAUUAUGUUACGCCGUUCGGAUCUGCACU; value = 0.807
Strand = UGUGCUACACAUCGUAUGUACCGAAUCGGGGUUUUUUUGGGUUUUUUUGGGGUUUUUUUGGGAAAGUAUUAUGUUACGCCGUUCGGAUCU; value = 0.0141
Strand = GUCCUGUGCUACACAUCGUAUGUACCGAAUCAAAUUUUUAAAUUUUUAAAUUUUUAAAAAAGUAUUAUGUUACGCCGUUCGGAUCUGCAC; value = -1.16
Strand = UGGCCCUGGUGGCAUGCGGGGAGGAAGAGGUGGCCUCAUGGAUCGUGGUGGUCCCGGUGGAAUGUUCAGAGGUGGCCGUGGUGGAGACGG; value = 0.0586

Study 3
Target: Histone acetyltransferase KAT6A, winged helix 1, GST fusion (KAT6A, Homo sapiens, UniProt Q92794, residues 1-85)
Technique: protein binding microarray
Molecule type: double-stranded DNA, one strand shown
Sample: in vitro
Tested at: not given
Setting: 8-mer, flanks averaged, mean of 2 arrays, mostly near background
Relative to: not given
Direction: higher = stronger binding
Endpoint: E-score
Residues (chain): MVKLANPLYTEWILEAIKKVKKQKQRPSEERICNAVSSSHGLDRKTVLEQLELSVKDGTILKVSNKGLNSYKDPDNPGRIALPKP
Strand = AACCAAGC; value = -0.0158
Strand = CTATACGA; value = -0.111
Strand = ACACACGG; value = 0.327
Strand = ACAGCATG; value = -0.0717
Strand = CACTTCGG; value = -0.00487
Strand = GAGTTATA; value = -0.0689
Strand = CTAAGGAG; value = -0.31
Strand = CTAACATA; value = -0.096
Strand = GCGGGACA; value = 0.352
Strand = GGCTACCC; value = 0.0258
Strand = GATTAGGA; value = 0.0673
Strand = GAGAATGC; value = 0.119
Strand = CATACTTC; value = -0.165
Strand = AGGCACGG; value = 0.202
Strand = ACCATCAC; value = -0.0683
Strand = CATCCGCC; value = 0.163
Strand = TGAGGCAA; value = -0.187
Strand = ACACACAG; value = -0.147

Study 4
Target: CCNE1, cyclin fold, Cln2 fusion (human)
Technique: yeast growth competition, sequencing
Sample: yeast
Setting: weak parent motif
Relative to: not given
Direction: higher = stronger binding
Endpoint: normalised enrichment score
Starting sequence: WEE1 docking peptide (human); HKTFRKLRLFDTP
Substitution = HKTFRKLRLFFTP [D11F]; value = 1.41
Substitution = HKTFRNLRLFDTP [K6N]; value = 0.525
Substitution = HLTFRKLRLFDTP [K2L]; value = 0.87
Substitution = LKTFRKLRLFDTP [H1L]; value = -0.288
Substitution = HKTFRKLRLFDTW [P13W]; value = 0.0236
Substitution = HKTFRKLRLTDTP [F10T]; value = 0.521
Substitution = IKTFRKLRLFDTP [H1I]; value = 1.4
Substitution = HKTFGKLRLFDTP [R5G]; value = 0.0768
Substitution = HKFFRKLRLFDTP [T3F]; value = 0.445
Substitution = HKTFRKLRLNDTP [F10N]; value = -0.442
Substitution = HKTFRKLFLFDTP [R8F]; value = 0.237
Substitution = HKTFRKLRLFMTP [D11M]; value = 0.789
Substitution = HKTFRKLRLFDVP [T12V]; value = 0.993
Substitution = HKTFRKLRKFDTP [L9K]; value = -0.426
Substitution = HKTDRKLRLFDTP [F4D]; value = 0.358
Substitution = HKVFRKLRLFDTP [T3V]; value = 2.08
Substitution = HKTFRKLRLFETP [D11E]; value = 0.761

Study 5
Target: RNA binding protein fox-1 homolog 2, RRM domain, GST-SBP tag (RBFOX2, Homo sapiens, UniProt O43251-10, residues 100-194)
Technique: RNA Bind-n-Seq
Molecule type: RNA
Sample: in vitro
Tested at: 365 nM
Setting: natural RNA segment, single round, ends assumed
Relative to: no-protein control
Direction: higher = stronger binding
Endpoint: RBNS enrichment (R)
All sequences stand within: GGGAGUUCUACAGUCCGACGAUC … UGGAAUUCUCGGGUGCCAA
Target sequence (chain): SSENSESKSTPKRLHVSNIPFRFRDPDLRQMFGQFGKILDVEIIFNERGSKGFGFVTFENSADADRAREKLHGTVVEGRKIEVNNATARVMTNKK
Strand = UCCUUGCCUUCCCCACUCCUGUGUCCUCCCAUCUAUCCUGUCUUUCCUUUCCUCCUCUCAGUGUCCUCAGCACCCACAAGGAAUUUUCCUAUCACUGUGAACUUUGCUGG; value = 1.4
Strand = AAAGUAGAAAAGGCAGGUGGUGGGCGGCUGGCAGGGAGUGCGGGUCCCCGCCCCUCUUCAGUCCUGCCCUCCCCUCCUCAGUCCUGCCCACCCCGUGCAGCCCAUGCUGA; value = 0.575
Strand = UUGUACAUUUUGUUUAAUAAAAGAUUAAAGAAUUUAUGAAGUUGGCUUGGACAAGUUUAAAUCCAUUUUUAAUGUGUUAAAUUUUUUUUGGAAUAAAUGUAUUCAUCUUC; value = 1.2
Strand = CAUGAUACCACACAGUCAUUUCCCAAUCAGUGCCUCACACAUCUAUCUGAUGGUGCAGUUUUGGGGUCUGUCCCCACUCCCCUCAGUCCCUACCCCUGCUCCCCUCAGAC; value = 0.485
Strand = UCUAUUUUCGGCAAUAAGGUAAGGACGACAGUGUUUUGAGUGUCCUCCUUUUCUAUAAGUGCUUUUUUUCUGUUGAAAGAGGUGAUAUUAUAAGGUUUUUUGAAAUUGUG; value = 1.16
Strand = UCCUCCCUGGGACACUUGUAAGUACAAAGCUCCCCAGCCUUUGAGGCCUCAACCCCCCACCAUCUGUCUGUCCUCAGGGACCCUCCAGUAGGGGGACCAUUGGGGACAUC; value = 0.257
Strand = CAGUUUGCUCCCUGUUGACAUAGGGAAAAACUGAGUGUCAUAGGCAGUAUUUCACAGUGGACAUUUCACAGUAUUUCACAGUCUUGCCUGUGGCCUGCUGGCUGCAUGCU; value = 1.9
Strand = AGACCUAGAAGUCACUUUUAUGAUUUAUGAUAUAUGAUGUGUUUUUUACUAUUGUAUGUCAUUUAAUUCUGAUCUGUUUAAUGCUACAAAAGUAAAGUUGAAAAGAUCUA; value = 0.28
Strand = CUAACCUUUUUCCCUCCUAAUUUGCUUUGAAAAAGUUUAGUAAUUCAAUUAAGCGUGAUUCUAUCUUAGAAGAAAUAAACUCAGUAUUAAUUCAUGUCUAAAUCACUGGG; value = 0.503
Strand = CUGGUAGACCGUUCUGGAAUGGAGGGGCUAUGAUCGUCCUAGGACCUGUGCUACGGAGGGGUGGAGGGCACUGAGUAGGGCUCUGCCCUAUUCAUCUUGUUGGAACCCCA; value = 0.372
Strand = UAUUAUGGAAAGGAGUACAGGACCUCUUCAGUCUUCCCCUUACCAGAGGUAGCCUCUGCAAAUGGCAUACCAGAUGGGACUCUAAGAUGCUUGUGUGGUGGCUUCUUGUC; value = 0.61
Strand = UAUGGUGUCUGCAUCUCAGCAGAUCUGGUCUGAGGGAGCGAUUCCUGUGUGGCGCCGUCCAUCUGGCCACUGCAGUCCAACCUCCACAAGAGAGAAGAACUAAAGAAGUU; value = 0.18

A few entries again (study 2):
Strand = AAAGGAAGUAAAAACAAAUGGAAAUGCUUCGGAUAGUGGCAGGGGUGGGGGUUGCUAAGGAAAGGGUGGGAUGGGAGUGGGUAAAGAGUU; value = 0.146
Strand = CUCAAGUCCUGUGCUACACAUCGUAUGUACCGAAUCGGAAAAAGGUGGUUUGGAAAGUAUUAUGUUACGCCGUUCGGAUCUGCACUUCCA; value = -0.454
Strand = UGGGAGGUGGAUUUUGUUUAUUUUUUUAGCUCAUUUCCAGGGGUGGGAAUUUUUUUUUAAUAUGUGUCAUGAUUAAAGUUGUUUUUGAAA; value = 0.348
Strand = CACAGACAAUACGCACCCACACAGACACAGAGGGAAGGGGUUGGGAUGGGGACAGGGUGCACAGCAGGGCGGGGUAGGACCCCAGCCCCU; value = 1.29
Strand = CUCAAGUCCUGUGCUACACAUCGUAUGUACCGAAUCGGUGGUUUUUGGAAAGGAAAGUAUUAUGUUACGCCGUUCGGAUCUGCACUUCCA; value = -0.0843
